Assay results pooled from the literature.
Numbered parts are unrelated; each lists some results of a single study.

Block 1
Target: Phosphate system positive regulatory protein PHO4, full length, GST-tagged (PHO4, Saccharomyces cerevisiae, UniProt P07270, residues 1-312)
Technique: competition protein-binding microarray
Form: double-stranded DNA, one strand shown
Medium: in vitro
Tested at: 2 µM
Setting: whole 60-bp probe, lowest competitor level
Together with: Cbf1 competitor, 0.05 µM
Direction: higher = stronger binding
Target sequence (chain): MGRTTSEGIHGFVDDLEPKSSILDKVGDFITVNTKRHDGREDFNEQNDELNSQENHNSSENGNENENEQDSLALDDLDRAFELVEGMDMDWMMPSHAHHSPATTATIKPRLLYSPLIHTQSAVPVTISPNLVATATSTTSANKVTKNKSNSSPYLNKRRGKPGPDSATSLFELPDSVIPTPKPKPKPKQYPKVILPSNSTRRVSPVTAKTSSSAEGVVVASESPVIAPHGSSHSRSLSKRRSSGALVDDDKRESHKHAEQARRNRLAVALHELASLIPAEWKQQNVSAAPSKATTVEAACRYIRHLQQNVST
Sequence	fluorescence intensity
GCACAAGGAATTGCTGGCGTGCTAATTCTCGACCTTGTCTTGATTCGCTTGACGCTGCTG	5850 a.u.
CTAACGAAGGTTTTACACGTGTTTTACAAGCCAAGTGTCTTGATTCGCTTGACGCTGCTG	17500 a.u.
AGCATAATGCCGGACCATGTGAAAAGTTCACTCAAAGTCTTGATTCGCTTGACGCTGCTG	6780 a.u.
GTCTTGTCTCATTGTATGGTGGGTGTCCCCACTTCAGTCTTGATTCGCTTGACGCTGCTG	5210 a.u.
CCACCCCAATTCCATCACGTCCATACCAGGGGCGTAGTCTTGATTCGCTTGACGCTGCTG	5040 a.u.
CATAACAGTCTAGAGCGCGTGGGTAATACGGCTGTTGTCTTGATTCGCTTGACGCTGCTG	12000 a.u.
GCTGTGATAAAGAACTTCGTGCTTTTTTGGGTTACAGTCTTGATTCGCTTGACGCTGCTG	6070 a.u.
AAAGCGGTAATTTGATGAGTGGGTGCAGATATCTATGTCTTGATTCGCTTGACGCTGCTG	4700 a.u.
CGTCCTAGTGATTGGCTTGTGGGTGCCATGAGGAAGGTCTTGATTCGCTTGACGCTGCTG	7330 a.u.
CAAGTCAAGTTTCAACACGTAGTCTTGAACAGTGGGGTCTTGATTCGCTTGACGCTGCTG	6450 a.u.
GTTTGATAATGTCAACACGTCATCATAGATGGTTGTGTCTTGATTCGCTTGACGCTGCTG	6360 a.u.
AAAGCGGTAATTTGTTCAGTGGGTGCAGATATCTATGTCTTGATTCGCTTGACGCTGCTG	3540 a.u.
CTTTCCCGATCTTGTATCGTGGGTGTAGCACATTTGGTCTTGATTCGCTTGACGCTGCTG	7440 a.u.
CTTTCCCGATCTTGCTTGGTGGGTGTAGCACATTTGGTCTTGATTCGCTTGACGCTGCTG	4340 a.u.
TTGTAATGAGTTGGGCACATGGCGCAGTTGGTAGCGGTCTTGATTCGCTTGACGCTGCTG	11500 a.u.
CCGCTCGCCCATTCGCACATGGCTTCTCAAGGATCGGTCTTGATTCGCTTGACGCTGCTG	9120 a.u.
CCCAATTTTTAAAAACACGTGCCGACCAGGATTGGGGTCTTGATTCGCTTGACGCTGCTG	17300 a.u.
CTTTCCCGATCTTGTGGTGTGGGTGTAGCACATTTGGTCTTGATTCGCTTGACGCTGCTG	5970 a.u.
CATACCCAACCTTGTCACAACACTTAAGATATTTGTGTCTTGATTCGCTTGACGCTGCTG	4010 a.u.

Block 2
Target: RNA binding protein fox-1 homolog 2, RRM domain, GST-SBP tag (RBFOX2, Homo sapiens, UniProt O43251-10, residues 100-194)
Technique: RNA Bind-n-Seq
Form: RNA
Medium: in vitro
Tested at: 365 nM
Setting: natural RNA segment, single round, ends assumed
Reference: no-protein control
Direction: higher = stronger binding
Construct (chain): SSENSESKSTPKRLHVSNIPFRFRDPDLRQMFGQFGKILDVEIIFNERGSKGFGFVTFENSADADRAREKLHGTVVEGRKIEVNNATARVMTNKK
Sequence	RBNS enrichment (R)
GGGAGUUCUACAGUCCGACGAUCCAGUACAUUGACGGGCAGGGCCGGCCCCGCACCAGCCAGUCUGAGGAGACCCGCGUGUGGCACCGCCGCGACGGCAAGUGGCAGAACGUGCACUUCCACUGCUCGGGCGCUGGAAUUCUCGGGUGCCAA	0.43
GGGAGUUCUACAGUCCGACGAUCGCACUGAUUGUGGAAGAUCUGGCAACAUGAAAGAUUGCCAGCCUUUGUGUAUAGGACUGCGUUCGUAGGCAUCCCCCCAGUUAUUCUGAAGGUCCUGUGCUGAUGGAGGCUGGAAUUCUCGGGUGCCAA	0.471
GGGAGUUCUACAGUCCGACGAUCAGCUGCCACAGUAAGCAGGUCAUUGUAUAGGUAAAUGCCUGCACCCAUAAUUUUCUAGUAAUAGCCACGACCAAUUUAUUAACAGUCAGGGCCUAUCCUUGCCUGUAGUUUGGAAUUCUCGGGUGCCAA	0.508
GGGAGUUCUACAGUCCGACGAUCGGAAGCAUAUUUAGCCAUCUAUGUGGCUUUAUGGCCCACAGACCUUGCCUUUUAGUCCUAUACAAAUGUACCUUUCUAUAAAGGGGUGCAAGCAGCACUUCAGAAGAAACUGGAAUUCUCGGGUGCCAA	0.347
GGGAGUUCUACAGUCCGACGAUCGCAGGAGGAGGAAGAAGGAAGUGUCCAGUCACAUCCUUAGUUCUCAGAGGACUUUAUUUUCCUCUCUACCUACUCUUUUGGGUGUCACUGUCUCCAGACAGCAGGGCCCUUGGAAUUCUCGGGUGCCAA	0.29
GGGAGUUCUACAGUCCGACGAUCGUAAAGUCAGAAUGCGGGGCCAGGAGGGCCUCUUCCUCCCUCUUCCCUCCCAAGAAACCAGGUUGGAGAGGCCCAAGUCACUGGGGCCCACCCUUGCUAGGGUUUCCGUAUGGAAUUCUCGGGUGCCAA	0.329
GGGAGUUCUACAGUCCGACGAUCGAAUUGGAUCCAGGGGACCUGGGCUCAUUCUUCUUGGCUCACCAACCCUGCAGGCCUCAUCUUUCCCAAAACCCACUUUGUCUUGGUGGGAGUGGGUCCGCGCUGCUCUGUGGAAUUCUCGGGUGCCAA	0.522
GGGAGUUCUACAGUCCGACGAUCGAGAAGGUAAUGCUAGAGGAAGACUCAGUCACACAGAUAACAGGCAUUGGAAACAGCCGCACUAUGGCUUCUUUGAGACCCUAUUUCCUUUUCUGGUUGUGGACAAGGCUUGGAAUUCUCGGGUGCCAA	0.675
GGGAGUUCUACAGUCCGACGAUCGAAAUGGGAUGUGAGAAUGAUGAAACCCGACAGAAGUAUCUCAGCCUGCAGUCAGUUAUUAUGUAUAGGAGGUGAGCUAGUUAACAAACUUGUACCACAAAACAAUAUCGUGGAAUUCUCGGGUGCCAA	0.798
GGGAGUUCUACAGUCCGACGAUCUUGGGGGCCUACUUCUUCAUGGAAGAAUUACUUUUAUUCUCAAACUACAGAAUAAUGUGCUAAGUAGUGCUAAAUAGUUCUUGACGAAGAAAACAGUCACUGCAUUUAUCUGGAAUUCUCGGGUGCCAA	0.629
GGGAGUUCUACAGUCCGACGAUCCACAGCUGCACGCACGCAUGCAAGUUCACAGCGCAGGCACCCCCAGCUCGCCUGGAUCUGACUCCAAGUGGCUUGGGUGCCUGGUGGGCAGCACCUUGGAGACCAAGCAGUGGAAUUCUCGGGUGCCAA	7.85
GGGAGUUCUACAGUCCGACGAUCUGGCCAUUGUCUCUGGAUCCCCUCAGAAAGCUGCCUCCCCUAGGCAGGUGCCUUUUGGACAGUUGUGCUGAGCCUGGCAUCACAGACACCAGCAUGCACUUCAGGAUCAUUGGAAUUCUCGGGUGCCAA	0.541

Block 3
Target: Histone acetyltransferase KAT6A, both winged helices, GST fusion (KAT6A, Homo sapiens, UniProt Q92794, residues 1-181)
Technique: protein binding microarray
Form: double-stranded DNA, one strand shown
Medium: in vitro
Tested at: not given
Setting: 8-mer, flanks averaged, mean of 2 arrays, mostly near background
Reference: not given
Direction: higher = stronger binding
Residues (chain): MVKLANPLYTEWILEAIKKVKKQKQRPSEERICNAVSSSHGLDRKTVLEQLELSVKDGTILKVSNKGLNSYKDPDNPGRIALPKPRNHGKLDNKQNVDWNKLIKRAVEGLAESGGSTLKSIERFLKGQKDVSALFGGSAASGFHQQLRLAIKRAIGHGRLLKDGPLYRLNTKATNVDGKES
Sequence	E-score
GCATCGGA	0.0992
AATTCAAG	-0.123
ACTCTTAG	-0.175
CCGGGCTC	0.0588
AATTTGGC	0.0103
ACGGGCAT	0.243
CTGCTGTC	0.00962
TACTCTCA	-0.152
AAAAGCAG	-0.159
CTACTCAA	-0.0693
AACGGGTG	0.227
ATCCCTAG	-0.167
GTAAACAC	0.0851
AGCATACG	0.0195

Block 4
Target: Ras GTPase-activating protein-binding protein 1, full length (G3BP1, Homo sapiens, UniProt Q13283)
Chain of UniProt Q13283 (whole entry, looked up): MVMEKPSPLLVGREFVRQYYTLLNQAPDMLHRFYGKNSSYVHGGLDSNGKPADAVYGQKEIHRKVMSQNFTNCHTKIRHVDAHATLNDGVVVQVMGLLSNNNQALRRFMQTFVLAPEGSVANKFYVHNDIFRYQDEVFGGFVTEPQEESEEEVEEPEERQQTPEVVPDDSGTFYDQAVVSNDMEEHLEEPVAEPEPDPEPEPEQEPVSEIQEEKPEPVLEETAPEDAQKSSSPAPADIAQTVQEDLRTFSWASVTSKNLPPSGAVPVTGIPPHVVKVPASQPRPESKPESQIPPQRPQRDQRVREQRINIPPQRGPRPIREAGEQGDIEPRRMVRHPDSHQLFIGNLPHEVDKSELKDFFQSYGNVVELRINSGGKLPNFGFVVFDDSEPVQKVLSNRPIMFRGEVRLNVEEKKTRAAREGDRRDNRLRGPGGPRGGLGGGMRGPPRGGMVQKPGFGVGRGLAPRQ
Technique: RNA Bind-n-Seq
Form: RNA
Medium: in vitro
Tested at: 200 nM
Setting: whole 134-nt RNA, ends assumed
Together with: 150 mM LiCl
Reference: input library
Direction: higher = stronger binding
Each molecule: 7-deaza-guanosine replaces G
Sequence	log2 enrichment
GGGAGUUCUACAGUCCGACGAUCCCUGUGCUACACAUCGUAUGUACCGAAUCGGGGUUUGGGGAAAAAAAGGGGUUUUUGGGGAAAGUAUUAUGUUACGCCGUUCGGAUCUGCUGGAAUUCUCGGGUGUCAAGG	0.308
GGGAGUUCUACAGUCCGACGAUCUCCUGUGCUACACAUCGUAUGUACCGAAUCGGGGUUUUUGGGGUGGGGUUUUUUUGGGGAAAGUAUUAUGUUACGCCGUUCGGAUCUGCAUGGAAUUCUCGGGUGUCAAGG	-0.582
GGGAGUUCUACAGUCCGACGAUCUUUAGACAGAAACAAGAAGCAACAGAGUCCCUUAAGUGCCAAGAGGAACUUCGAGAGCGCCUUCAUGAGGAGUCCAGGGCCAGAGAACAGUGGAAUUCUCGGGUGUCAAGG	-1.98
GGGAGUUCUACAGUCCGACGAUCAGUCCUGUGCUACACAUCGUAUGUACCGAAUCAAACCCCCAAACCCCCAAACCCAAAAAAGUAUUAUGUUACGCCGUUCGGAUCUGCACUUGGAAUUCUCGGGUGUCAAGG	-0.00495
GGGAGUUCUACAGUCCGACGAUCUGGGAGGUGGAUUUGGUUUAUUUUUUUAGCUCAUUUCCAGGGGUGGGAAUUUUUUUUUAAUAUGUGUCAUGAAUAAAGUUGUUUUUGAAAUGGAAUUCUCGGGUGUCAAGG	0.0427
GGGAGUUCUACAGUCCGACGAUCUGGCCCUGGUGGCAUGCGGGGAGGAAGAGGUGGCCUCAUGGAUCGUGAUGGUCCCGGUGGAAUGUUCAGAGGUGGCCGUGGUGGAGACAGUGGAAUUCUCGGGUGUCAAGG	0.119
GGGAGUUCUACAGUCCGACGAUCAAGUCCUGUGCUACACAUCGUAUGUACCGAAUCGGGGUGGGGAGGGGAAAAAGGGGAAAGUAUUAUGUUACGCCGUUCGGAUCUGCACUUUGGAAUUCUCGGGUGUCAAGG	0.676
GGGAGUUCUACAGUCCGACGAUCCCUGUGCUACACAUCGUAUGUACCGAAUCGGCCCCCCCGGGGCCCCCCCGGCCCCCCCGGGAAAGUAUUAUGUUACGCCGUUCGGAUCUGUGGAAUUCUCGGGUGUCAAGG	-0.859
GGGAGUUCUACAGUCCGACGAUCUCCUGUGCUACACAUCGUAUGUACCGAAUCGGGGUUUGGGGAAAAAAAGGGGUUUGGGGAAAGUAUUAUGUUACGCCGUUCGGAUCUGCAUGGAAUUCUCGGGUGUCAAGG	-0.279
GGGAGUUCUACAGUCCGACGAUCCCUCAAGUCCUGUGCUACACAUCGUAUGUACCGAAUCGGAAAAAGGUGGUGGAAAGUAUUAUGUUACGCCGUUCGGAUCUGCACUUCCAGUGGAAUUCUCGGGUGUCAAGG	-0.0355
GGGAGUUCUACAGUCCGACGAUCUAGUGAUGGUCCUAAAUAGCAUGAGUGUCAGCUGGAGCGCCCGGAUCCAGAUUUUCUUAACCUUUUGCAAGCUCACAGCAAUUCUGAUAAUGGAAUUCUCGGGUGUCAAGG	-1.98

Repeated from above (block 4):
Sequence	log2 enrichment
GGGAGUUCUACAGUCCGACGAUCUUUAGACAGAAACAAGAAGCAACAGAGUCCCUUAAGUGCCAAGAGGAACUUCGAGAGCGCCUUCAUGAGGAGUCCAGGGCCAGAGAACAGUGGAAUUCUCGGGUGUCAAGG	-1.98
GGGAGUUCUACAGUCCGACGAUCUCCUGUGCUACACAUCGUAUGUACCGAAUCGGGGUUUUUGGGGUGGGGUUUUUUUGGGGAAAGUAUUAUGUUACGCCGUUCGGAUCUGCAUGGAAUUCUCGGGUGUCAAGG	-0.582
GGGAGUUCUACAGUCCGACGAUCAAGUCCUGUGCUACACAUCGUAUGUACCGAAUCGGGGUGGGGAGGGGAAAAAGGGGAAAGUAUUAUGUUACGCCGUUCGGAUCUGCACUUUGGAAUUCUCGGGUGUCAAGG	0.676
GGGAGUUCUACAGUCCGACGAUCAGUCCUGUGCUACACAUCGUAUGUACCGAAUCAAACCCCCAAACCCCCAAACCCAAAAAAGUAUUAUGUUACGCCGUUCGGAUCUGCACUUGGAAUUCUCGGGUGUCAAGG	-0.00495
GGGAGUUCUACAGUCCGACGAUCCCUCAAGUCCUGUGCUACACAUCGUAUGUACCGAAUCGGAAAAAGGUGGUGGAAAGUAUUAUGUUACGCCGUUCGGAUCUGCACUUCCAGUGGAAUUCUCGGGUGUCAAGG	-0.0355
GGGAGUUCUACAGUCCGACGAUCUGGGAGGUGGAUUUGGUUUAUUUUUUUAGCUCAUUUCCAGGGGUGGGAAUUUUUUUUUAAUAUGUGUCAUGAAUAAAGUUGUUUUUGAAAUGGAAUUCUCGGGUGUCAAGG	0.0427
